Assay results pooled from the literature.
Numbered parts are unrelated; each lists some results of a single study.

Block 1 — method: EMSA with sequencing; molecule type: double-stranded DNA, one strand shown; sample: in vitro; concentration: 10 and 20 nM; baseline: negative control set to 0; direction: higher = stronger binding
Target: Hepatocyte nuclear factor 3-alpha (Foxa1, Mus musculus, UniProt P35582, residues 1-468, full length assumed)
Setting: whole designed probe, mean of two concentrations, ends assumed
All sequences stand within: GTGAGCGGTGCCCATTGATGGGGAAC … TTTCACTGGGATCGTGGGGAC
Target sequence (chain): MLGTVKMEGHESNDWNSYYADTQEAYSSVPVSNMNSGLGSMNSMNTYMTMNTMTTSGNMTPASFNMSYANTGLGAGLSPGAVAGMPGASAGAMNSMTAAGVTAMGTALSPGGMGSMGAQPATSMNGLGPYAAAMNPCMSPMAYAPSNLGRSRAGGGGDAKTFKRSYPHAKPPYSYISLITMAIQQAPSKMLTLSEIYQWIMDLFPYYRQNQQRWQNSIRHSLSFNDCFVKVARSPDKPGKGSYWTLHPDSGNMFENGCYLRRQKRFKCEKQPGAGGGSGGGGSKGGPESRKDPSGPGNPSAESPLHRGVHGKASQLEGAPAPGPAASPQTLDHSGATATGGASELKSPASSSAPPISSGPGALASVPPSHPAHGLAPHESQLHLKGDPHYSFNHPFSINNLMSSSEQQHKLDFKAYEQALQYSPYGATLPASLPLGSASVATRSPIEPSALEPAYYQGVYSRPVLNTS
`CACGTGGGTATTACCAAGCATGAAATTATCATCTAAAAACTCAATTTTAAAGAGCTGGTTCTTTGGGAAAAATAAGAAAGAACATTTCTTCCTGTTTACTCTGAGATTTGCTTTTTTTTCCCCAATAATGTGGTTATTGCGTCTTTCTTAATCTTTAGCGATTAGGCTTGAATTTTCACCTAGTGTCCAATTT`: “normalised bound fraction” 0.0351 ratio.
For `CACATAGACTACAGTCTATGAAAAACATATTCATTTTTTAGGATAATATATAAGATCTCTGAAATGACAATTCACACAAAAGTAATAAAAATGTAATCTAGCATCAAAACTGATACAACAGATCACACTAATTGCCAAAAGTGCAGAAAGAGAAAAATTGGGTATAACAGCAATAACCTTATAAAATGTCAGA`, “normalised bound fraction” read 0.00443 ratio.
`CCCTTAACCTACTCCTAAATCCTCTTTCCTTTTCCTTTCTAAATATCCTTTCGTGCTGTGAAGGGAAGAATGGAGGTGGGTCTTATTGCTACTAAATGACACATATCAGGTTTAGCTACACAATATGTTTGTAATTAAAAGCTTCAGCAAGAATATTCTGCTCCTTTCCTTTGAGGATTTGCAGAGCACAGGC`: “normalised bound fraction” -0.0087 ratio.
`ATCTTCCCCCTCTTCCTTGCCCCACCAGCTCACCTACGGGGGTTATTTGCAGATAGGAAAATAAATAAAGCCGGCATTCGTTAACCCTCTTCACGCGCATACTGCTGTTTGCTCTGCATCTAACATGGTCCTTACGCGACGCCAGGCTCCGGGAGAGCAAAGCACCGTGTCAGGCGCATGATCCGGGGTGGCC` — result for “normalised bound fraction”: 0.36 ratio.
`CCCTCATCCTGGGTGTCGGGGTGGGAGGTGTTCTCATCATGAATGGGAGGCGTACCCAGATCCAGCTCTGCCTTTTTTTAACCAAACCACATTTGTTTACACTCGCTGGTGACTCACCATTAATCGACATAGCAAGATATGATACATGCCAGGAGAGAAAAAGAAAGTGCTGATGGAAAAATAATCTCATTAG` — result for “normalised bound fraction”: 0.239 ratio.
For `TCCTCCCCCTCCTACCAGGCAGGGCTGAGCCAGACTGGGGTTCCAAAGCCCTTCCTCCTTCTCGATCCAGAGATAAATATTTGTTTCTCCAGTGTAAATAGCCCTTCGTGTTTAATGAGGCAATCCTAGGGCCATTTCCTGGCACGGCTCAGGGCCTGGAGGTCTTTCTCGCTCTGGGAGGAACAGTCCTAGG`, “normalised bound fraction” read 0.194 ratio.
For `GGTAAATGCACCTTTAATTGATAAGACAGACAATTTTTGTAAAAGAATTGGAAAACCATCTGTACTGTAAACTTTTGTGTCTCTTTTTCATTCCTGTTTACTCTGCTATTCAATCCAAATAAAGATTGTTTTCACCTCAGCAACACAAAAATCACATAGACGATCCTTCAGGCTGTCAGTCAGAGGAAAGATA`, “normalised bound fraction” read 0.19 ratio.
Under “normalised bound fraction”, `ATCTTCCCCCTCTTCCTTGCCCCACCAGCTCACCTTCCCGGGTTATTTGCACAAAGGAAAATAAATAAAGCCGGCATTCGTTAACCCTCTTCACGCGCATACTGCTGTTTGCTCTGGATGAATCATGGTCCTTTGGCGAGGCGTGGCTCCGGGAGAGCAAAGCACCGTGTCAGGGCCATGATCCGGGCTCGCC` is recorded as 0.374 ratio.

Block 2 — method: protein binding microarray; molecule type: double-stranded DNA, one strand shown; sample: in vitro; concentration: not given; baseline: not given; direction: higher = stronger binding
Target: Histone acetyltransferase KAT6A, both winged helices, GST fusion (KAT6A, Homo sapiens, UniProt Q92794, residues 1-181)
Setting: 8-mer, flanks averaged, mean of 2 arrays, mostly near background
Construct (chain): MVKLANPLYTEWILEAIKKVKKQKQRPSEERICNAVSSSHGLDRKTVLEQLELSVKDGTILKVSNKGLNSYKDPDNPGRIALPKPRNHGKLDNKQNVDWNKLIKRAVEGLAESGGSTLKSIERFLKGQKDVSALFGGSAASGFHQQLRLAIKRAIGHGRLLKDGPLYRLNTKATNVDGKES
`ATGTGAAG` gave an E-score of -0.124.
For `CTCGGCAA`, the E-score was 0.117.
With `ATGGGTTC` the E-score was -0.158.
With `CGATAAAC` the E-score was 0.104.
`GCTCGCAA` has an E-score of 0.0266.
The E-score of `GACCGATC` is reported as 0.0879.
`ATTGGGAG` gave an E-score of -0.219.
`TCCGTCAA` has an E-score of 0.238.
`GAGAGGGA` gave an E-score of -0.152.
`CTCGTACA` has an E-score of -0.106.
`AGCAGCCA` gave an E-score of -0.141.
For `CGAATAAA`, the E-score was 0.031.
`ATCGCCGC` gave an E-score of 0.361.
`CGCAGGTC` gave an E-score of 0.0548.
For `CGATAGAC`, the E-score was 0.0587.
`CGCCTTGA` gave an E-score of 0.106.
`ACCAAATC` has an E-score of -0.12.
`TAGCAGGA` gave an E-score of -0.208.
`AGGGCTGC` has an E-score of -0.023.
`AAGGCAAG` gave an E-score of -0.281.
`AGAAATAG` gave an E-score of -0.22.
`AGCCGGGA` has an E-score of 0.148.
The E-score of `CCGTCATA` is reported as 0.201.
`CACATACC` has an E-score of 0.0279.
The E-score of `CATGACCA` is reported as -0.154.

Block 3 — method: protein-binding microarray; molecule type: double-stranded DNA, one strand shown; sample: in vitro; concentration: 0.8 µM; setting: whole 60-bp probe, no competitor; direction: higher = stronger binding; all sequences stand within: … GTCTTGATTCGCTTGACGCTGCTG
Target: Centromere-binding protein 1, full length, N-terminal tag (CBF1, Saccharomyces cerevisiae, UniProt P17106, residues 1-351)
Sequence of UniProt P17106 (whole entry, looked up): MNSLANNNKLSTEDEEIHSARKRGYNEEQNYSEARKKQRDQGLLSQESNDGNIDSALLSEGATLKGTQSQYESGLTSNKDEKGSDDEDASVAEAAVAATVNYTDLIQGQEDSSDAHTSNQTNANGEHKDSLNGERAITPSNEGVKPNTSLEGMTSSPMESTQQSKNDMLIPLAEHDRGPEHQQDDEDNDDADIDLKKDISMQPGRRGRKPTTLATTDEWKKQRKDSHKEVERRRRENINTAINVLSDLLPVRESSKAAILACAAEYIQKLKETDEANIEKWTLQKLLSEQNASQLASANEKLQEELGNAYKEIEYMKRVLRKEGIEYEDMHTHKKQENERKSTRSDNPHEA
With `GAACAAAGTTCATATCACGATAAACGTCAGTTCTAG` the fluorescence intensity was 542 a.u.
`CTAGCGATATCAAGTGATGTTACCTTCCTTTACTTC` has a fluorescence intensity of 565 a.u.
The fluorescence intensity of `GAAAGCTTACAATTGCACGTAGAGACTAGTATATAG` is reported as 507 a.u.
`CTAAAATTTTCTGGTCTGATGTTCTTTACGTGTTTC` gave a fluorescence intensity of 530 a.u.
`GAATCCTCAATTTTTGACGTCATCTTCTTACGCTAG` has a fluorescence intensity of 519 a.u.
The fluorescence intensity of `CTATAGGAAATATGACATGTGGGCTATCTGTTTTTC` is reported as 600 a.u.
For `CTAAAACAAAGGCTGCATGCGATAATACACCCTTTC`, the fluorescence intensity was 503 a.u.
`GAAAGAGTAAAAGGCCGTGCGCACTCTGACAAGTAG` has a fluorescence intensity of 530 a.u.
`GAATGCTGCTTGTTTCAGGTGATGTGAACAACGTAG` has a fluorescence intensity of 695 a.u.
`CTACTGTATGATTATCAGTTGAGTTGGTGAGATTTC` gave a fluorescence intensity of 493 a.u.
`CTACGTACATAATTCAGCGTGATATGATGAAATTTC` has a fluorescence intensity of 639 a.u.
The fluorescence intensity of `CTAAACGAGCTAGATCATGTGAGAGAGATAGTATTC` is reported as 1620 a.u.
The fluorescence intensity of `GAACATTGGCTTGTGATCATCATCGAAATTGATTAG` is reported as 645 a.u.
For `GAACATATTCTGATCCAACTGATGCATCAGTTATAG`, the fluorescence intensity was 525 a.u.
`GAAATGATCAAAATGCGTGTGGGCGGCTACAATTAG` gave a fluorescence intensity of 580 a.u.
With `GAATCAAATTGCGGTCACGTATATGCCAACGTTTAG` the fluorescence intensity was 1090 a.u.
With `TGTACGAAGCTATGACACGTGATTATAGTAGTTAGG` the fluorescence intensity was 11900 a.u.
The fluorescence intensity of `CTAAGTATACTATCACATGTGGTGTAAAAAGATTTC` is reported as 2090 a.u.
`CTATGTTGTATTGCTGCTGATGTTTTAGGCACTTTC` has a fluorescence intensity of 578 a.u.
`CTACATCAACACTTCAACAACACGTGTCTGTGATTC` has a fluorescence intensity of 9090 a.u.

Block 4 — method: protein-binding microarray; molecule type: double-stranded DNA, one strand shown; sample: in vitro; concentration: 940 nM top; setting: 60-bp whole probe; with: salmon DNA 0.4 mg/ml; baseline: random background probes; direction: higher = stronger binding; all sequences stand within: GCCTAGCAC … GTCTTGATTCGCTTGACGCTGCTG
Target: Interferon regulatory factor 5, full length, phosphomimetic (IRF5, Homo sapiens, UniProt Q13568-2, residues 1-514, S451D/S453D/S456D/S462D)
Under “fitted relative affinity”, `TCATGTGTACATCTCTCACTGTGCTAG` is recorded as 0.337 z-score.
`TCATTTTCACTTTTCCTACTGTGCTAG` — result for “fitted relative affinity”: 3.5 z-score.
`TCAAATTCCAAGTTCATACTGTGCTAG` — result for “fitted relative affinity”: 0.575 z-score.
Under “fitted relative affinity”, `GACGATAGCGGGTATCGAGACGTGCTA` is recorded as 1.11 z-score.
`GACCATATCAGTTTCGAGACGTGCTAG`: “fitted relative affinity” 4.58 z-score.
`GACGAACTGAGACTGGAGATGTGCTAG` — result for “fitted relative affinity”: 0.065 z-score.
`GACGATCTCAAACTGGAGACGTGCTAG`: “fitted relative affinity” -0.42 z-score.
Under “fitted relative affinity”, `GACGGACTGGCCTTTCGGGACGTGCTA` is recorded as -0.356 z-score.
`CAGGTTTTGCTAAGTCAACTGGTGCTA`: “fitted relative affinity” 0.473 z-score.
`TCAGCTTTCCTTCTTGAACTGTGCTAG`: “fitted relative affinity” 0.89 z-score.
`CTCTGCTTGTGTCTGGGCTTGTGCTAG` — result for “fitted relative affinity”: -0.215 z-score.
Under “fitted relative affinity”, `GACGGTTTCGGTCTCGGGAGGTGCTAG` is recorded as 13.4 z-score.
`TCAGTTTCCTCTTTCACACTGTGCTAG` — result for “fitted relative affinity”: 2.55 z-score.
`TTAGGATTGGGTATCGGTTAGTGCTAG` — result for “fitted relative affinity”: 4.6 z-score.
`TAAGAACTGAGACTGGATTAGTGCTAG` — result for “fitted relative affinity”: 0.0854 z-score.
`GTGTGTGTCTGATTATTTACGTGCTAG`: “fitted relative affinity” 0.404 z-score.
`GACGATAACGGGTTTCGAGACGTGCTA` — result for “fitted relative affinity”: 1.73 z-score.
`TTAGGTTTCCTAATGCTTTAGTGCTAG` — result for “fitted relative affinity”: 0.567 z-score.
`ACCCATCTCAAGTAGCCTAGCGTGCTA`: “fitted relative affinity” 0.3 z-score.
For `GACGATTTAAGTTTCGAGACGTGCTAG`, “fitted relative affinity” read 4.13 z-score.
`TTAGGGCTGGGTATCGGTTAGTGCTAG`: “fitted relative affinity” 3.74 z-score.
`GACGGTTTGGGTTCCGGGACGTGCTAG` — result for “fitted relative affinity”: 0.164 z-score.
`TCAATGTTCCCTATATAACTGTGCTAG`: “fitted relative affinity” 0.738 z-score.
`TCAACTCTCTACATGGGACTGTGCTAG`: “fitted relative affinity” 0.62 z-score.
`GACGTTTTCGGTATCGGGACGTGCTAG`: “fitted relative affinity” 4.81 z-score.
